Results pooled from the literature.
Protocols differ between the studies behind these lines. ± marks the error that the study gave.

| Structure (SMILES) | test | system | setting | how to read | measurement | value |
| --- | --- | --- | --- | --- | --- | --- |
| CC(C)[C@H](NC(=O)[C@@H](NC(=O)[C@H](CCCNC(=N)N)NC(=O)[C@H](CCCNC(=N)N)NC(=O)[C@H](CCCNC(=N)N)NC(=O)[C@H](CCC(N)=O)NC(=O)[C@H](CCCNC(=N)N)NC(=O)[C@H](CCCNC(=N)N)NC(=O)[C@H](CCCCN)NC(=O)[C@H](CCCCN)NC(=O)[C@H](CCCNC(=N)N)NC(=O)CN)[C@@H](C)O)C(=O)N[C@H](C(=O)N[C@@H](CO)C(=O)N1CCC[C@H]1C(=O)O)[C@@H](C)O | – | ICR mice, female, heart | intranasal, 20 mg/kg daily, 4 weeks | – | organ weight | 0.188 ± 0.021 g |
| CC(C)C[C@H](NC(=O)[C@H](Cc1ccc(O)cc1)NC(=O)[C@H](C)NC(=O)[C@H](CC(N)=O)NC(=O)[C@H](CC(C)C)NC(=O)[C@H](C)NC(=O)[C@@H](NC(=O)[C@H](CCCCN)NC(=O)CNC(=O)[C@@H](NC(=O)[C@H](CCCCN)NC(=O)[C@H](CCCCN)NC(=O)CNC(=O)[C@@H](NC(=O)[C@H](Cc1c[nH]cn1)NC(=O)[C@@H](NC(=O)[C@H](C)NC(=O)[C@H](CCCCN)NC(=O)[C@H](CCCCN)NC(=O)[C@H](Cc1ccccc1)NC(=O)[C@H](Cc1c[nH]c2ccccc12)NC(=O)[C@H](CCCCN)NC(=O)[C@H](CCCCN)NC(=O)[C@H](CC(C)C)NC(=O)CN)C(C)C)C(C)C)C(C)C)C(C)C)C(N)=O | – | zebrafish embryos 28 hpf, E3 medium | 24 h | – | chronic toxic concentration | 5 µM |
| CCCCCCCCCCCCCCCC(=O)N[C@@H](CCC(=O)NCCOCCOCCC(=O)NCCOCCOCCC(=O)NCCCC[C@H](NC(=O)[C@H](CC(=O)O)NC(=O)[C@H](CC(C)C)NC(=O)[C@H](Cc1ccc(O)cc1)NC(=O)[C@H](CCCCN)NC(=O)[C@H](CO)NC(=O)[C@H](Cc1ccc(O)cc1)NC(=O)[C@H](CC(=O)O)NC(=O)[C@H](CO)NC(=O)[C@@H](NC(=O)[C@H](Cc1ccccc1)NC(=O)[C@@H](NC(=O)CNC(=O)[C@H](CCC(N)=O)NC(=O)[C@@H](CO)NC(=O)[C@@H](N)Cc1c[nH]cn1)[C@@H](C)O)[C@@H](C)O)C(=O)N[C@@H](CCCNC(=N)N)C(=O)N[C@@H](CCCNC(=N)N)C(=O)N[C@@H](C)C(=O)N[C@@H](CCC(N)=O)C(=O)N[C@@H](CC(=O)O)C(=O)N[C@@H](Cc1ccccc1)C(=O)N[C@H](C(=O)N[C@@H](CCC(N)=O)C(=O)N[C@@H](Cc1c[nH]c2ccccc12)C(=O)N[C@@H](CC(C)C)C(=O)N[C@@H](CC(C)C)C(=O)N[C@@H](CC(N)=O)C(=O)N[C@H](C(=O)NCC(=O)NCC(=O)N1CCC[C@H]1C(=O)N[C@@H](CO)C(=O)N[C@@H](CO)C(=O)NCC(=O)N[C@@H](C)C(=O)N1CCC[C@H]1C(=O)N1CCC[C@H]1C(=O)N1CCC[C@H]1C(=O)N[C@@H](CO)C(N)=O)[C@@H](C)O)C(C)C)C(=O)O | – | rhesus monkey, plasma | subcutaneous, 20 µg/kg, single dose | – | Cmax | 12 ng/mL |
| Cn1nc(NS(C)(=O)=O)c2c(Cl)ccc(-n3c([C@H](Cc4cc(F)cc(F)c4)NC(=O)Cn4nc(C(F)F)c5c4C(F)(F)[C@@H]4C[C@H]54)nc4nc(OCCC(F)(F)F)ccc4c3=O)c21 | – | human, plasma | oral, 200 mg single dose, powder in bottle, median | – | tmax | 10 h |
| CSCC[C@H](N)C(=O)N[C@@H](C)C(=O)N[C@@H](CCCNC(=N)N)C(=O)N[C@@H](CCCNC(=N)N)C(=O)N[C@@H](CC(=O)O)C(=O)N[C@@H](CCCCN)C(=O)N[C@H](C(=O)N[C@@H](CC(=O)O)C(=O)N[C@@H](Cc1ccccc1)C(=O)N[C@@H](C)C(=O)N[C@@H](CCCNC(=N)N)C(=O)N[C@@H](CCCNC(=N)N)C(=O)N[C@@H](CCCNC(=N)N)C(=O)N[C@@H](CCCNC(=N)N)C(=O)NCCCCCC(=O)NCCCCC(NC(=O)CCCCCNC(=O)[C@H](CCCNC(=N)N)NC(=O)[C@H](CCCNC(=N)N)NC(=O)[C@H](CCCNC(=N)N)NC(=O)[C@H](CCCNC(=N)N)NC(=O)[C@H](C)NC(=O)[C@H](Cc1ccccc1)NC(=O)[C@H](CC(=O)O)NC(=O)[C@@H](NC(=O)[C@H](CCCCN)NC(=O)[C@H](CC(=O)O)NC(=O)[C@H](CCCNC(=N)N)NC(=O)[C@H](CCCNC(=N)N)NC(=O)[C@H](C)NC(=O)[C@@H](N)CCSC)[C@@H](C)O)C(=O)NCCCCC(NC(=O)C(CCCCNC(=O)CCCCCNC(=O)[C@H](CCCNC(=N)N)NC(=O)[C@H](CCCNC(=N)N)NC(=O)[C@H](CCCNC(=N)N)NC(=O)[C@H](CCCNC(=N)N)NC(=O)[C@H](C)NC(=O)[C@H](Cc1ccccc1)NC(=O)[C@H](CC(=O)O)NC(=O)[C@@H](NC(=O)[C@H](CCCCN)NC(=O)[C@H](CC(=O)O)NC(=O)[C@H](CCCNC(=N)N)NC(=O)[C@H](CCCNC(=N)N)NC(=O)[C@H](C)NC(=O)[C@@H](N)CCSC)[C@@H](C)O)NC(=O)CCCCCNC(=O)[C@H](CCCNC(=N)N)NC(=O)[C@H](CCCNC(=N)N)NC(=O)[C@H](CCCNC(=N)N)NC(=O)[C@H](CCCNC(=N)N)NC(=O)[C@H](C)NC(=O)[C@H](Cc1ccccc1)NC(=O)[C@H](CC(=O)O)NC(=O)[C@@H](NC(=O)[C@H](CCCCN)NC(=O)[C@H](CC(=O)O)NC(=O)[C@H](CCCNC(=N)N)NC(=O)[C@H](CCCNC(=N)N)NC(=O)[C@H](C)NC(=O)[C@@H](N)CCSC)[C@@H](C)O)C(N)=O)[C@@H](C)O (some centres unmarked) | – | C57BL/6 mouse female, heart | dose not given, 3 h | reference: total | mean tissue distribution | 0.66% |
| CSCC[C@H](NC(=O)CNC(=O)[C@H](CCCCN)NC(=O)[C@H](CC(C)C)NC(=O)[C@@H]1CCCN1C(=O)[C@H](CO)NC(=O)[C@H](Cc1c[nH]cn1)NC(=O)[C@H](Cc1c[nH]c2ccccc12)NC(=O)[C@H](CCCNC(=N)N)NC(=O)[C@H](CC(C)C)NC(=O)[C@H](CCCNC(=N)N)NC(=O)[C@H](Cc1c[nH]c2ccccc12)NC(=O)[C@H](CS)NC(=O)CCCCCNC(=O)CN1CCN(CC(=O)O)CCN(CC(=O)O)CCN(CC(=O)O)CC1)C(=O)O [copper-64 labelled] | – | BALB/c nude mouse, Huh-7 tumour, tumour and muscle | intravenous, 1.85 MBq, 18 h, ex vivo biodistribution | reference: tumour over muscle | tumour-to-muscle ratio | 11.2 |
| CC(C)[C@@H]1NC(=O)CNC(=O)[C@H](CC(N)=O)NC(=O)[C@H](CCCNC(=N)N)NC(=O)[C@H](Cc2ccc(O)cc2)NC(=O)[C@H](C(C)C)NC(=O)[C@@H](NC(=O)[C@@H](NC(=O)[C@H](CC(N)=O)NC(=O)[C@H](Cc2c[nH]c3ccccc23)NC(=O)[C@H](C)NC(=O)[C@H](Cc2ccccc2)NC(=O)CNC(=O)[C@H](CCCCN)NC(=O)[C@H](Cc2ccccc2)NC(=O)[C@H](Cc2ccccc2)NC(=O)[C@H](CCCCN)NC(=O)OCC2c3ccccc3-c3ccccc32)C(C)C)CSSC[C@@H](C(=O)N[C@@H](Cc2c[nH]cn2)C(=O)N[C@@H](CCCNC(=N)N)C(=O)N[C@@H](CCCNC(=N)N)C(=O)N[C@@H](C)C(=O)N[C@@H](CC(N)=O)C(N)=O)NC(=O)[C@H](C(C)C)NC(=O)[C@H](CCCNC(=N)N)NC1=O | – | ICR mice, blood | intraperitoneal, 10 mg/kg, day 5 | – | basophils | 1.69 ± 0.29% |
| CCOP(=O)([O-])CNC(=O)CN1CCN(CC(=O)NCP(=O)([O-])OCC)CCN(CC(=O)NCP(=O)([O-])OCC)CCN(CC(=O)NCP(=O)([O-])OCC)CC1.[177Lu+3] | – | octanol/water | room temperature | – | logP | -3.77 ± 0.37 |
| COc1cnc2cccc(N3CCc4c(cc(Cn5ccnc5)cc4-c4cn(C)nc4C(F)(F)F)C3=O)c2c1 | – | CD-1 mouse | intraperitoneal, 150 mg/kg once daily, day 3, dose-escalation tolerability | reference: day 1 | body weight change | 6.1% |
| CCCCC(CC)COC(=O)CC(C(=O)OCC(CC)CCCC)S(=O)(=O)O.COC(=O)Nc1nc2cc(C(=O)c3ccc(F)cc3)ccc2[nH]1 (centres unmarked) | visual inspection | Miglyol 812 | – | – | solubility | < 5000 µg/mL |
| CC(C)C[C@H](NC(=O)[C@H](Cc1ccc(O)cc1)NC(=O)[C@H](Cc1c[nH]cn1)NC(=O)[C@H](CC(N)=O)NC(=O)[C@H](CC(C)C)NC(=O)[C@H](C)NC(=O)[C@H](CC(C)C)NC(=O)CNC(=O)CNC(=O)[C@@H](NC(=O)[C@@H](NC(=O)[C@H](CCCCN)NC(=O)CNC(=O)[C@@H](NC(=O)[C@H](CCCCN)NC(=O)[C@H](CCCCN)NC(=O)[C@H](C)NC(=O)[C@H](CCCCN)NC(=O)[C@H](CCCNC(=N)N)NC(=O)[C@H](Cc1ccccc1)NC(=O)[C@H](Cc1c[nH]c2ccccc12)NC(=O)[C@H](CC(=O)O)NC(=O)[C@H](CCCCN)NC(=O)[C@H](Cc1c[nH]c2ccccc12)NC(=O)CN)C(C)C)[C@@H](C)O)C(C)C)C(N)=O | – | zebrafish embryos 28 hpf, E3 medium | 24 h | – | chronic toxic concentration | 5 µM |
| CC[C@H](C)[C@H](N)C(=O)N[C@@H](CCCNC(=N)N)C(=O)N[C@H](C(=O)N[C@@H](Cc1c[nH]c2ccccc12)C(=O)N[C@@H](Cc1ccccc1)C(=O)N[C@H](C(=O)N[C@@H](CCCCN)C(=O)N[C@H](C(=O)N[C@@H](CCCNC(=N)N)C(=O)N[C@@H](CCCCN)C(=O)N[C@@H](CCSC)C(=O)N[C@@H](CCCCN)C(=O)N[C@@H](C)C(=O)N[C@H](C(=O)N[C@@H](Cc1ccc(O)cc1)C(=O)N[C@@H](Cc1c[nH]cn1)C(N)=O)[C@@H](C)CC)C(C)C)[C@@H](C)CC)C(C)C | reversed-phase UPLC | C18 column, TFA | – | – | elution acetonitrile content | 44.4% |
| NC1CCN(C(=O)Oc2ccc(C3CCCC4(C3)OOC3(O4)C4CC5CC(C4)CC3C5)cc2)CC1 (racemic) | – | male mouse, plasma | intravenous, 10 mg/kg | – | clearance | 147 mL/min/kg |
| O=C1NC2(CC2)COc2ncc(F)cc2[C@H]2COCCN2c2ccn3ncc1c3n2 | – | Sprague-Dawley rats, male, blood | oral, 20 mg/kg/day, end of recovery, 4-week subacute toxicity | – | APTT | 16.5 ± 1.4 s |
| N=C(N)NCCC[C@H](NC(=O)[C@H](CCCNC(=N)N)NC(=O)[C@H](CCCNC(=N)N)NC(=O)[C@H](CCC(N)=O)NC(=O)[C@H](CCCNC(=N)N)NC(=O)[C@H](CCCNC(=N)N)NC(=O)[C@H](CCCCN)NC(=O)[C@H](CCCCN)NC(=O)[C@H](CCCNC(=N)N)NC(=O)CNC(=O)[C@H](Cc1ccc(O)cc1)NC(=O)[C@H](Cc1ccccc1)NC(=O)[C@H](Cc1ccccc1)NC(=O)[C@H](Cc1ccccc1)NC(=O)OCC1c2ccccc2-c2ccccc21)C(=O)O | – | C57BL/6 mice | intraperitoneal, 10 mg/kg, 6 h | direction not given | health score | 5 |
| CC[C@H](C)[C@H](NC(=O)[C@H](CCCCN)NC(=O)CNC(=O)[C@H](CC(C)C)NC(=O)[C@H](Cc1ccccc1)NC(=O)[C@H](CCCCN)NC(=O)[C@H](CO)NC(=O)[C@H](Cc1ccccc1)NC(=O)[C@H](Cc1c[nH]c2ccccc12)NC(=O)[C@H](CCC(N)=O)NC(=O)[C@@H](NC(=O)[C@H](Cc1ccccc1)NC(=O)CCCCCNC(=O)CN1CCN(CC(=O)O)CCN(CC(=O)O)CCN(CC(=O)O)CC1)C(C)C)C(=O)N[C@@H](CCC(=O)O)C(=O)N1CCC[C@H]1C(=O)N[C@@H](CC(=O)O)C(=O)N[C@H](C(=O)N[C@@H](CO)C(=O)N[C@@H](CCC(N)=O)C(=O)N[C@H](C(=O)N[C@@H](CCC(N)=O)C(=O)N[C@@H](CC(=O)O)C(=O)N1CCC[C@H]1C(=O)N[C@@H](CC(N)=O)C(=O)N[C@@H](CC(=O)O)C(=O)N[C@@H](CCC(N)=O)C(=O)N[C@@H](Cc1ccc(O)cc1)C(=O)N[C@@H](CCC(=O)O)C(=O)N1CCC[C@H]1C(=O)N[C@@H](Cc1ccccc1)C(=O)O)C(C)C)C(C)C [copper-64 labelled] | dynamic PET | mouse both sexes, CT26 tumour, untreated, tumour | intravenous, 100 µCi/mouse, 990 s | – | SUVmean | 1.06 SUV |
| COc1ccc(CNc2ccc3c(c2)S(=O)(=O)C=C3)cc1 | flow cytometry | male C57BL/6 mice, spleen | i.p., 5 mg/kg, 8 days | reference: CD45+ cells | CD8+ cells | 10.8% |
